Measurements gathered from unrelated publications.
Compare with care: the assays were run in different laboratories. Values joined by “and” are separate records of one study, mostly repeats; a detail may differ. Numbers after ± are the reported error.
Tmem97: Sigma intracellular receptor 2 (Tmem97, Rattus norvegicus, UniProt Q5U3Y7)
Chain of UniProt Q5U3Y7 (whole entry, looked up): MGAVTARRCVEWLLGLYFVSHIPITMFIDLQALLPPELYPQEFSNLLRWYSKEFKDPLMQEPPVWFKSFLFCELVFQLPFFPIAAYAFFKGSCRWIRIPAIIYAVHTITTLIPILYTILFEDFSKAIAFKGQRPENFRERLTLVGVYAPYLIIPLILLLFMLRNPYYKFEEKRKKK
MAOB: Amine oxidase [flavin-containing] B (MAOB, Homo sapiens, UniProt P27338)
Chain of UniProt P27338 (whole entry, looked up): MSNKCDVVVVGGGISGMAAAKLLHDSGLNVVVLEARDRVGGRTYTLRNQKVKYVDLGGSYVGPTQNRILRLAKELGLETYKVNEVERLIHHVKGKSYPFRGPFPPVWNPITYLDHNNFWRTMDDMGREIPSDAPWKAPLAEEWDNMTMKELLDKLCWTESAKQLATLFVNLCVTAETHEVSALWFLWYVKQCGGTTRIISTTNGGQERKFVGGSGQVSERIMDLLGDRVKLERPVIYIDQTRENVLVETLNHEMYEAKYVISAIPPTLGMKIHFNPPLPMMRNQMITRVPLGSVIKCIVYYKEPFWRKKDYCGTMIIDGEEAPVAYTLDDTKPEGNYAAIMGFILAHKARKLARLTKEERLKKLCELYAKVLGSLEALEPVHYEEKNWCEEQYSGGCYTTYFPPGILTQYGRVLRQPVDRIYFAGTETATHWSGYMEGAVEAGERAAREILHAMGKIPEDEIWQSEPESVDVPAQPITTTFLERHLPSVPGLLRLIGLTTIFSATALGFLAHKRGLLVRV
TDP1: Tyrosyl-DNA phosphodiesterase 1 (TDP1, Homo sapiens, UniProt Q9NUW8)
Chain of UniProt Q9NUW8 (whole entry, looked up): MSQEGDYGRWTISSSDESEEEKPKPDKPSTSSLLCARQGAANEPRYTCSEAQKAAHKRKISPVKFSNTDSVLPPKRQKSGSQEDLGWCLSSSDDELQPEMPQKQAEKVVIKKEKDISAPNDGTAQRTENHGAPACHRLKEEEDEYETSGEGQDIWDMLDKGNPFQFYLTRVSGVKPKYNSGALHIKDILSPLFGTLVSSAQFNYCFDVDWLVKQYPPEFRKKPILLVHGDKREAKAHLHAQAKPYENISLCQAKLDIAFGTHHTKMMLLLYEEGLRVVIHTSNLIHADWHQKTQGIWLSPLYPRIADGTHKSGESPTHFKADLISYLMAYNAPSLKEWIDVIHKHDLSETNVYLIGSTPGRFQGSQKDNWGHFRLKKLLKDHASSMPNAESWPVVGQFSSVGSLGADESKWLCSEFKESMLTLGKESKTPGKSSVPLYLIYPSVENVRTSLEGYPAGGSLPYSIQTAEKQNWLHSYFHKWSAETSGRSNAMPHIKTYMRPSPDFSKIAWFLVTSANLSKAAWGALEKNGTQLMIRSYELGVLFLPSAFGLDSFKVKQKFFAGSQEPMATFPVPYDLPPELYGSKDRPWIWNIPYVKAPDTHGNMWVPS
Chain of UniProt Q8IAS0 (whole entry, looked up): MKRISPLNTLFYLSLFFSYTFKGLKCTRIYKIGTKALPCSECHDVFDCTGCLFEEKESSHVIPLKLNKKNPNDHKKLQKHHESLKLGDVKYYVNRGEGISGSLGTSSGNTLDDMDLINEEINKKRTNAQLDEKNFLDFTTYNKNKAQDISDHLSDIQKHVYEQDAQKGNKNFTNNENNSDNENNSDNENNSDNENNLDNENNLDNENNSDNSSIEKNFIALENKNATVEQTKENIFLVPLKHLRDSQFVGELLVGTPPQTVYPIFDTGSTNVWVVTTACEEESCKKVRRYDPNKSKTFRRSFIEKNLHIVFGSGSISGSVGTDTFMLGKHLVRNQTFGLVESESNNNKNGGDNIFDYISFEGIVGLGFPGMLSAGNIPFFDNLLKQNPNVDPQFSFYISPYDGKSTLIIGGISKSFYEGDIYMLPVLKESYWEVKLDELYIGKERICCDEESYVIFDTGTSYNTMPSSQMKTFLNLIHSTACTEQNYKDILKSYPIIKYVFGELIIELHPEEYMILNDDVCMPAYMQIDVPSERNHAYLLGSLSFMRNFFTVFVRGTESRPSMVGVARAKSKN
Chain of UniProt P22310 (whole entry, looked up): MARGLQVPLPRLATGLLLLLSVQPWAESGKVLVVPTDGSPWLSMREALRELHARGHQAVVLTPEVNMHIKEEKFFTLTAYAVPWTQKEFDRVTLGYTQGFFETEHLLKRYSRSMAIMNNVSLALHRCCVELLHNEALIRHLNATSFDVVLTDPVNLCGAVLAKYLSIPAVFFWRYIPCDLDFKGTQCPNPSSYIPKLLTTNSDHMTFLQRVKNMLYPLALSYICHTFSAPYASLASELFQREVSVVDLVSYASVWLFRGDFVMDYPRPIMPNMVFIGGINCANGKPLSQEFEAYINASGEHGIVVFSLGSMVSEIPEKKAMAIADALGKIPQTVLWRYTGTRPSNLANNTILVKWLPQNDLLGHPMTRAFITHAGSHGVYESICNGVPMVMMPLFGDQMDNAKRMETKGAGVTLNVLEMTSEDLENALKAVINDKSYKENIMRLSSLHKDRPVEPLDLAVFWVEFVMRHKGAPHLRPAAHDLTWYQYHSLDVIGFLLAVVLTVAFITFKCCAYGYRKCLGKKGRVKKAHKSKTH
Chain of UniProt P41146 (whole entry, unmodified, looked up): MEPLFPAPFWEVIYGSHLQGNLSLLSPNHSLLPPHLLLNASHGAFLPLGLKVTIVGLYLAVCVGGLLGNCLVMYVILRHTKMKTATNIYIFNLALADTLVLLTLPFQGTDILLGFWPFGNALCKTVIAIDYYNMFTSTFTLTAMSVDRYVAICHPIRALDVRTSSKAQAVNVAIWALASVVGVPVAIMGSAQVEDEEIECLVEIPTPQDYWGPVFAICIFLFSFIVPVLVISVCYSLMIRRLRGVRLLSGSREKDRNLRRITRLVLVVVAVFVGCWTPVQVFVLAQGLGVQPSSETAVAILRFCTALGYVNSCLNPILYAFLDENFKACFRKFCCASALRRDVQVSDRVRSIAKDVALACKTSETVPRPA
Chain of UniProt P11712 (whole entry, looked up): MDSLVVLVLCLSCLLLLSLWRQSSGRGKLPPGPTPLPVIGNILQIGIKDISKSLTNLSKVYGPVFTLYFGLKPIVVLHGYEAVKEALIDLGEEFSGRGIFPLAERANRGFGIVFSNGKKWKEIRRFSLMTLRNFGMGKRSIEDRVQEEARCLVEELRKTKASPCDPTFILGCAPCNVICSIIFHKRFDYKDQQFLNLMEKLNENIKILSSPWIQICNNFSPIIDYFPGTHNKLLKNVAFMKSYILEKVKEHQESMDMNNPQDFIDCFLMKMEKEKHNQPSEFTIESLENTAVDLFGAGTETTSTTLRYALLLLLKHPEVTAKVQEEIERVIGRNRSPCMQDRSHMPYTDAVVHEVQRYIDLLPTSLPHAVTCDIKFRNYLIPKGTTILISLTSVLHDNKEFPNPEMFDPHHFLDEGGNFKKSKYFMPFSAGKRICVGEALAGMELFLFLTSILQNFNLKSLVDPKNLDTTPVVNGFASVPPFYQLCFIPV
Chain of UniProt P0A7A9 (whole entry, looked up): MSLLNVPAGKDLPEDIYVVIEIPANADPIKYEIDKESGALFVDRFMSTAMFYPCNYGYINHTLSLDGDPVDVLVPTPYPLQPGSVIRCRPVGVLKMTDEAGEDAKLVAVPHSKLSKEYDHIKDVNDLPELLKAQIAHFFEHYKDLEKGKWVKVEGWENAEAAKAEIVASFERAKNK
Chain of UniProt Q86U44 (whole entry, looked up): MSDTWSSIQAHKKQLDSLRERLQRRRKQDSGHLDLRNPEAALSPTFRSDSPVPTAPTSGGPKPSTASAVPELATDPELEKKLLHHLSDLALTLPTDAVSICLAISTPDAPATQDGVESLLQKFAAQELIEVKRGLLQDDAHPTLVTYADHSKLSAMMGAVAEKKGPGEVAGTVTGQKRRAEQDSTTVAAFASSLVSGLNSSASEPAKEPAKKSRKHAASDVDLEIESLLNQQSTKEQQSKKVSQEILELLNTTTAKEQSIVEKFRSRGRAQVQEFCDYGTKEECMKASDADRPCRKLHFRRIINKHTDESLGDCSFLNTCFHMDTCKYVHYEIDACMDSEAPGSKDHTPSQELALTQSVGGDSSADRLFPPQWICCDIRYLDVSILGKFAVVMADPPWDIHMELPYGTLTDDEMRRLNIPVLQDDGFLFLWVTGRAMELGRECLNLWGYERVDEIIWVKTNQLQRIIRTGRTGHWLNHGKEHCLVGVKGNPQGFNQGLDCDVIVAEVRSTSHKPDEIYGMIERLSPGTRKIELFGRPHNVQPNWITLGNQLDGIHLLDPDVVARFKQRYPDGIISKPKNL
Chain of UniProt P13945 (whole entry, looked up): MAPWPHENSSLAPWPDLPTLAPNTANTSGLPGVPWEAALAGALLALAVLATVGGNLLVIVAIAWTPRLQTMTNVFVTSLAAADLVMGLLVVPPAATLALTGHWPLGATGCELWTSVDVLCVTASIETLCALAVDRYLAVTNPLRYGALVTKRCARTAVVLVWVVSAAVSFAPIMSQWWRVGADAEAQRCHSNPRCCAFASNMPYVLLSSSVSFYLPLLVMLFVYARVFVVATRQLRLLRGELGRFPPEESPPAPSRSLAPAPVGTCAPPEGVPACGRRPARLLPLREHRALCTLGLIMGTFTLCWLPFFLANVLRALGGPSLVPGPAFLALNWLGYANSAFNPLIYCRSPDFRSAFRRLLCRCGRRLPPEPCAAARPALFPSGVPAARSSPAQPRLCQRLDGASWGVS

N#CSc1sc(N)nc1-c1ccccc1 — IC50 (Uncharacterized protein (Trypanosoma brucei brucei, UniProt Q386Q8); enzyme activity, inhibitor, coupled colorimetric; with: E. coli pyrophosphatase coupling): 24500 nM
C[Se+](CCNc1c(N)c(=O)c1=O)C[C@H]1O[C@@H](n2cnc3c(N)ncnc32)[C@H](O)[C@@H]1O (mixture of isomers) — Ki (N6-adenosine-methyltransferase catalytic subunit, with METTL14 (METTL3, Homo sapiens, UniProt Q86U44); inhibitor): 3 nM
COc1ccc(-c2coc3cc(O)cc(O)c3c2=O)cc1 — Ki (Cytochrome P450 2C9 (CYP2C9, Homo sapiens, UniProt P11712); enzyme activity, inhibitor; human, liver microsomes; 15 min): 15600 nM
CCC1(CC)CC(=O)N(C2c3cc(C(=O)NC4c5ccccc5CC4O)ccc3OC2(C)COC)C(=N)N1 (centres unmarked) — Ki (Plasmepsin X (Plasmodium falciparum, UniProt Q8IAS0); enzyme activity, inhibitor): 0.132 nM and 0.13 nM
Cn1ccc2c(N3CCN(CCCCOc4ccc5c(c4)NC(=O)CC5)CC3)cccc21 — Ki (Beta-3 adrenergic receptor (ADRB3, Homo sapiens, UniProt P13945); ligand displacement, radioligand): > 10000 nM
Cc1ccc(C2CCN(C3CCCCC3O)CC2)cc1 (racemic) — Ki (Tmem97; radioligand binding; rat liver; with: [3H]DTG, 1 µM dextrallorphan mask): 62 ± 18 nM
Cc1cc(O)c2c(c1O)C(=O)c1cc(O)cc(O)c1C2=O — Ki (MAOB; enzyme activity, inhibitor): 10700 nM
Cc1ccc(S(=O)(=O)n2cccc2C=NOCc2ccc3nc(-c4ccccc4)c(Nc4ccc(C(=O)O)cc4)n3c2)cc1 (mixture of isomers) — inhibition (TDP1; enzyme activity, inhibitor; 100 µM, unpurified compound): 27.4%
OC1CCCCC1N1CCC(c2ccc(Br)cc2)CC1 (racemic) — Ki (Tmem97; radioligand binding; rat liver; with: [3H]DTG, 1 µM dextrallorphan mask): 13 ± 1 nM
Cc1cc(O)c2c(c1)C(=O)c1c(O)c(O)cc(O)c1C2=O — Ki (MAOB; enzyme activity, inhibitor): 17100 nM
CC(C)c1ccc(/C=C/C(=O)c2ccc(F)cc2)cc1 — Ki (MAOB; enzyme activity, inhibitor): 27 nM
COc1ccc(OC)c(C2=Nn3c(nnc3-c3ccccc3)SC2)c1 — IC50 (Inorganic pyrophosphatase (ppa, Escherichia coli, UniProt P0A7A9); enzyme activity, inhibitor): > 100000 nM
CCCC(=O)OC1CCC2(C)C(CCC3(C)C2CC=C2C4C(C)C(C)CCC4(C(=O)O)CCC23C)C1(C)C (centres unmarked) — Ki (UDP-glucuronosyltransferase 1A4 (UGT1A4, Homo sapiens, UniProt P22310); enzyme activity, inhibitor): 610 nM
CN1CC[C@@H](COc2cnc(C#N)cc2-c2ccn3nc(NC(=O)C4CC4)cc3c2)C1 — Ki (Receptor-interacting serine/threonine-protein kinase 2 (RIPK2, Homo sapiens, UniProt O43353); enzyme activity, inhibitor): 380 nM
Cc1nn(Cc2ccccc2Cl)c(Cl)c1C=NOCc1ccc(-c2nc3cc(-c4ccccc4)ccn3c2Nc2ccc(C(=O)O)cc2)cc1 — inhibition (TDP1; enzyme activity, inhibitor; 100 µM, unpurified compound): 54.5%
O=C(NCCCN1CCC2(CC1)OCc1ccccc12)C1CCCN1Cc1ccccc1 (centres unmarked) — Ki (Nociceptin receptor (OPRL1, Homo sapiens, UniProt P41146, Q280A)): 28 nM
CN(C)c1nc(NCc2ccc(F)cc2)c(/N=N/c2ccc(Cl)cc2)c(N(C)C)n1 — Ki (Chitinase (OfChi-h, Ostrinia furnacalis, UniProt Q4AE59); enzyme activity, inhibitor, fluorescence): 23.2 nM

Repeated from above:
CN(C)c1nc(NCc2ccc(F)cc2)c(/N=N/c2ccc(Cl)cc2)c(N(C)C)n1 — Ki (Chitinase (OfChi-h, Ostrinia furnacalis, UniProt Q4AE59); enzyme activity, inhibitor, fluorescence): 23.2 nM
